Published values of several laboratories.
Parts stem from different laboratories: compare values within a part only.

Study 1
Target: Histone acetyltransferase KAT6A, winged helix 1, GST fusion (KAT6A, Homo sapiens, UniProt Q92794, residues 1-85)
Method: protein binding microarray
Molecule type: double-stranded DNA, one strand shown
Sample: in vitro
Concentration: not given
Setting: 8-mer, flanks averaged, mean of 2 arrays, mostly near background
Baseline: not given
Reading: higher = stronger binding
Construct (chain): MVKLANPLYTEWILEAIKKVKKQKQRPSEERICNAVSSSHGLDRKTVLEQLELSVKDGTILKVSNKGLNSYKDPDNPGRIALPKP
Strand | E-score
CGAGCTCG | -0.141
ATAATTTG | -0.0582
ACAGTGAT | -0.207
AACCAACC | -0.0839
AACCTTTA | -0.202
GGAATTCC | -0.0725
ACCGAGCT | -0.00781
AAGACTTC | -0.161
CAACGCTG | 0.0628
TACAAGGA | -0.176
AGATTACG | 0.14
ATTCATCA | -0.156
CTCCCACC | -0.0331
CTAGGGCA | -0.157
CTTGCTTA | -0.126
CCCTAGCG | 0.049
CCTGGGCA | -0.214
CCTCACCC | 0.0606
CATGAAGA | -0.179
ACCGAGCG | 0.33
AATTCGTC | -0.0689
GAGTCTGC | -0.115

Study 2
Target: Phosphate system positive regulatory protein PHO4, full length, GST-tagged (PHO4, Saccharomyces cerevisiae, UniProt P07270, residues 1-312)
Method: competition protein-binding microarray
Molecule type: double-stranded DNA, one strand shown
Sample: in vitro
Concentration: 2 µM
Setting: whole 60-bp probe, lowest competitor level
Together with: Cbf1 competitor, 0.05 µM
Reading: higher = stronger binding
Constant ends, left off below: … GTCTTGATTCGCTTGACGCTGCTG
Construct (chain): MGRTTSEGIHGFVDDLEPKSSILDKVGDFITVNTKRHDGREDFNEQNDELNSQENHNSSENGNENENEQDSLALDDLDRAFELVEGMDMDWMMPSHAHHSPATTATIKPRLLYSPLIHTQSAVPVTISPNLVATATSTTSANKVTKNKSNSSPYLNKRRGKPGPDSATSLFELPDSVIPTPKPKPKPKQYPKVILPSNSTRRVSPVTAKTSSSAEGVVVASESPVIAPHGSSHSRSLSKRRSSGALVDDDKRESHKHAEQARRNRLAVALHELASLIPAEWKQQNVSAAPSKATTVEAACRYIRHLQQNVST
Strand | fluorescence intensity [a.u.]
ATTTTGCTAATTAAAGGCGTGCCGAAGCGGCGACTA | 9770
TCCCTGGGTCCCGGCCACGTGTAACGCTTCAACAAC | 17400
TGCGCAACAACTTTTCACGTGCTTTTATGTCTAGAA | 15800
ATGGAGTTAATTCACCACGTTACTAAATAAGAGATT | 10600
TAAGGTACTATCTTTGACGTGGCAATGCGGGATATT | 4820
TGCCGCATTTCTTCCCGCGTGGCAACTTCTGCGTAC | 8870
CGTCCTAGTGATTGTCGTGTGGGTGCCATGAGGAAG | 7680
CTTGGTCAATCAATCCACGTGAACCTCAACGCAGAT | 14100
TTGTCTCAACGCCATCACGTGACTCGCACTGCCTGC | 12500
AAAGCGGTAATTTGGGCTGTGGGTGCAGATATCTAT | 4100
CAGTGGAATCTTCATCACATGCTCGAACCGGCTTGA | 8950
CATACCCAACCTTTTCACGTGGAATAAGATATTTGT | 13600
TTCTTTATCTGATGATTCGTGATGGTCTAAATCTGC | 4200
ATTTGGTTCGAGCGTCATGATTGCTAAGGAAGTTAA | 3740
GAAGTCGCCAGGGTGCGCGGGCACTCAGGGTAAGAG | 4630
CTTTCCCGATCTTGCATGGTGGGTGTAGCACATTTG | 5500
GACGACCGTACTTTGCACGTGGCCGCAGACACATTT | 17100

Study 3
Target: RNA binding protein fox-1 homolog 2, RRM domain, GST-SBP tag (RBFOX2, Homo sapiens, UniProt O43251-10, residues 100-194)
Method: RNA Bind-n-Seq
Molecule type: RNA
Sample: in vitro
Concentration: 365 nM
Setting: natural RNA segment, single round, ends assumed
Baseline: no-protein control
Reading: higher = stronger binding
Constant ends, left off below: GGGAGUUCUACAGUCCGACGAUC … UGGAAUUCUCGGGUGCCAA
Construct (chain): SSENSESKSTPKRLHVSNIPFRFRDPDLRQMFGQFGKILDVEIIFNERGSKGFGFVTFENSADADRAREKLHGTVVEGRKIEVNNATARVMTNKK
Strand | RBNS enrichment (R)
UCCCUAACAGCAGGCAGCAUCCAUGCUGAAGCACAUACACCUCCGCUCCUCACCAGUGGGUUUUCUUUAUUUAUGAAUUGAUCUGAUUUCUCAACCUCAUUUGAACUAAA | 1.03
AGCUGGGCUUCCUUUGUUGGAGUCAACUGUUGAUGCUUCCAGGCCAAACUGGCUUCCUCUCCUCCUCUCCCCACCUUUGCCAUUCUUAAGUAUUGAAUGUACUUUGUAUA | 0.511
GACAAGCCAUCCAUCCCCCAUGGGAGAGGAGACAGUGUGGCAUCUGGGCCCAGCCCAGGGUCUGACUAUCCUAGGCGUCUUCUGAGAAGGCUUUUUCAGGGAAAACAAAC | 0.312
AUGUGUAAUGGAGAUUGCCUCAAAAUUGUGUCCACAUAAUCCACGCUCAUCUUGCAAAGCGCUAUUUCAGGCACAUCAUUGGAAUACAGGAAGUAGCCCUGCACCUGCCA | 0.273
GUCUUGGCCCUGUCCCUGCCCUGGGGUCCAGCAGGUCAUCCCUCCCUUCUUCUCUCUCCUUUGGCGUUUGUUCCUGUAGUCACUGGGCUAAUCUCCCCCUAGCUUCAAGC | 0.747
CGACAUGGCGAAGGCAAGGUCUUCCCCCAGAGGCACAUUCCUCUCCAUCUUUCCACCGCACACCUGGACCAGGCUUGCAGGCUGCCAGACGUCACUCCACCCGCCAGGGA | 0.363
CACUUUUCAUAUUCUUAAAAUAAUCUUCACUUCUGUUAAGAAGAACAUGUUGGUGGGUAAUUAUGCGAAUGUUUCCCUGUCCCUGAUUUCUCGAUUAGGCGUAUGGGUUU | 0.303
AGAACACGAGGGGAACCAGGGGACUUCGAAGGCAAGGUAAUUGUUGUGAAAAGUCUGUAAAUGCUUCUAAUUCUUCCCCCCUCUUAAAAUCAUAAUAGUUGUACAGAAUU | 0.476
UUAUAAGAAAACCAGCAUAAUACCUGAUAUAUUAAAAUGUAGUGCCUGUGAAACCUGUAUUAUACUGCUCUUCUGAAGUAAGACUUUUCUACACCGGUAGCCUUCGCUGU | 8.17
AUCCUGAGGAAGUCCGAGCUGUCCUGGAAAAGCUUUGCACUCCACCUAGACACGUGCCUCAGCUCUAGGGACCAGCAGGAAGGCUCCCCAAGCUUGGUACUUUCCCACAC | 0.322
GCUUACCAGCUCAAGACUUAUCUAACCCUAAAAGCAGGGAAGAACCCGGUGCGGCCUCAGCAGCUUCUGUGGGAACAGAGCCAGUCUGCACGGAGGAGGCUAAGACUCCA | 0.318
AGCAUACAUUGUAAAUUUGUAUUGUUUUAAAUACAGUAUUGUUUGCUGAAGCAUUGUAAUCAAGUUUGUAUUGUACAGUCAAAUGUAAGAAAAUAAAAAAAUUCUAGUCU | 1.3

Study 4
Target: Interferon regulatory factor 3, full length, phosphomimetic (IRF3, Homo sapiens, UniProt Q14653, residues 1-427, S386D/S396D/S398D/S402D/T404D/S405D)
Method: protein-binding microarray
Molecule type: double-stranded DNA, one strand shown
Sample: in vitro
Concentration: 2540 nM top
Setting: 60-bp whole probe
Together with: salmon DNA 0.4 mg/ml
Baseline: random background probes
Reading: higher = stronger binding
Constant ends, left off below: GCCTAGCAC … GTCTTGATTCGCTTGACGCTGCTG
Target sequence (chain): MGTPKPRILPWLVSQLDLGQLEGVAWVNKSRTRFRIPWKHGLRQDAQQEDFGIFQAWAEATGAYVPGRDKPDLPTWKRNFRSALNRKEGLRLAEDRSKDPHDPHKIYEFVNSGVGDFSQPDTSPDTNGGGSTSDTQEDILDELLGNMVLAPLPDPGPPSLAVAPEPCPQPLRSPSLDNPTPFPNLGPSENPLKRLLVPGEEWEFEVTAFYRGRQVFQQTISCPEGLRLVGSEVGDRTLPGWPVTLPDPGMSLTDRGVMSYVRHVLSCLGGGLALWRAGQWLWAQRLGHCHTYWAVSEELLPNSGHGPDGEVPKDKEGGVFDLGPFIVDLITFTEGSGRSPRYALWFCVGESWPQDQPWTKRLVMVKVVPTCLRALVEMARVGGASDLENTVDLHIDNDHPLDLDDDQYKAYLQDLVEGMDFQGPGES
Strand | fitted relative affinity
GGTTTTCTCTATTGCTTTCTGTGCTAG | 2.04 z-score
GACGATGTCGGGACTGGAGACGTGCTA | -0.502 z-score
GACGATCTCATTATCGAGACGTGCTAG | 1.02 z-score
TCACTTCTCTTTTTGCTACTGTGCTAG | 3.32 z-score
CAAGTGATGTAGCTGGGAGCGTGCTAG | -0.498 z-score
GACGGCATCCTACTGCTGACGTGCTAG | -0.344 z-score
TACGGTTTCCTTATCCTGACGTGCTAG | 7.68 z-score
TTAGGTCACGGTATCGGTTAGTGCTAG | 1.57 z-score
GACGGTCTCCTTCTCATGACGTGCTAG | 4.08 z-score
CCTTCCATCACTTTCCACTTGTGCTAG | 2.65 z-score
GACGATTTCGGGCATCGAGACGTGCTA | 0.653 z-score
TTAGATATTAGACTGGATTAGTGCTAG | -0.259 z-score
TTAGGTTTCTGGACTGGGTTAGTGCTA | 1.68 z-score
TTAGAATTGGGGTATCGATTAGTGCTA | -0.21 z-score
TTAGAACTGGGGTAACGATTAGTGCTA | -0.684 z-score
GACGATAGCGGGTTTCGAGACGTGCTA | 0.47 z-score
GACGGTTTCGACTTTCGGGTCGTGCTA | 4.46 z-score
TTAGGACTGGGGGTTCGGTTAGTGCTA | -0.435 z-score
GACGGTTTCGGGACTAGGGACGTGCTA | 4.77 z-score
TTAGGTCTCCTTCTCCTTTTGTGCTAG | 4.37 z-score
CACGGTTCCGGTTTCGGGACGTGCTAG | 5.75 z-score

Excerpt of the above (study 1):
Strand | E-score
CAACGCTG | 0.0628
CATGAAGA | -0.179
AGATTACG | 0.14
CTTGCTTA | -0.126
AACCAACC | -0.0839
